Assay results from different studies.
Numbered parts are unrelated; each lists some results of a single study. Changes are numbered by the printed parent chain.

Series 1
Target: CRIPT, C-terminal peptide
Technique: DHFR complementation, deep sequencing
Matrix: yeast
Notes: single substitutions, model-inferred values
Reference: wild type
Direction: higher = weaker binding
Starting sequence: ERBIN, PDZ domain 1 (human); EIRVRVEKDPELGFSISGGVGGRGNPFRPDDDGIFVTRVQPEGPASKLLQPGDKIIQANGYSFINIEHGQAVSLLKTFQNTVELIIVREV; partner TKNYKQTSV
| Substitution | binding free energy change |
| --- | --- |
| V87F | 0.0571 kcal/mol |
| E83W | 0.16 kcal/mol |
| V6C | 0.0504 kcal/mol |
| L74W | -0.0847 kcal/mol |
| D53A | 0.881 kcal/mol |
| F78T | 0.272 kcal/mol |
| D9W | 0.364 kcal/mol |
| I2K | 0.082 kcal/mol |
| V39Q | 0.556 kcal/mol |
| F35T | 0.815 kcal/mol |
| F27L | 0.805 kcal/mol |
| V39K | 1.08 kcal/mol |
| F35L | 0.665 kcal/mol |
| V82E | 0.676 kcal/mol |
| I86N | 1.49 kcal/mol |
| G43H | 1.47 kcal/mol |
| L74Q | 0.0237 kcal/mol |
| I86G | 0.376 kcal/mol |
| G24I | 1.42 kcal/mol |
| G18S | 1.48 kcal/mol |
| N25P | 0.589 kcal/mol |
| R23S | -0.848 kcal/mol |
| K8Y | 0.604 kcal/mol |
| I56H | 0.194 kcal/mol |
| G24R | 1.35 kcal/mol |

Series 2
Target: RNA binding protein fox-1 homolog 2, RRM domain, GST-SBP tag (RBFOX2, Homo sapiens, UniProt O43251-10, residues 100-194)
Technique: RNA Bind-n-Seq
Molecule type: RNA
Matrix: in vitro
Tested at: 365 nM
Notes: natural RNA segment, single round, ends assumed
Reference: no-protein control
Direction: higher = stronger binding
Residues (chain): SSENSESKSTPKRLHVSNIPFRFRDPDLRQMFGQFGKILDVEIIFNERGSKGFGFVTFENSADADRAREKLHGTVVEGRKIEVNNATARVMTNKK
| Strand | RBNS enrichment (R) |
| --- | --- |
| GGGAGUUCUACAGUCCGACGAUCUGGUACAAGAUGAAGGACAACAACUGUCUCCAUGGGCCACGUGCCCUAGAAGGACUCUCCCCAACUGUCAAAGCUAAUGCUUUGAGCACUUAGCAAACCAGCAUAAGAGAUGGAAUUCUCGGGUGCCAA | 0.331 |
| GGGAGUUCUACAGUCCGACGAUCUGGCUGAUAGCAACUGACUUAGACCUGUACCUGGAUUUCACUUGAAUUUAUAAAAUGUGUAUUGCUCAAAAAAAAAAAAAAGGUUUGCAAAUAUUUGCACAUAAGAUCUUUGGAAUUCUCGGGUGCCAA | 0.953 |
| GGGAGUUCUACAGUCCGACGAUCCUGUUUUUCUAACUGAAAAGCUAAGGGCUUGAUUCCUAGCCCCGUUCUGUGGGGCACUGGGUGAUACUCAGUUUCUUGUUCCUGGCCGUGGAGAGGGGCCUGGGGCACUGUGGAAUUCUCGGGUGCCAA | 0.521 |
| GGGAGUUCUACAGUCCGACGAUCGGAUAAUUUUUUUAAUGCACUUGUAUGUGAAGACAGUUUGUAUGACAUAAUACAAAACUUUUAAACACUUGGGCUUUCCUUUGCUUCCCUAUCAGUGGGUAGAGUUUUUGUGGAAUUCUCGGGUGCCAA | 0.501 |
| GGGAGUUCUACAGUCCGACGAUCUAAAGAAGGGACUUGAAUUUUAGGGACUUUAAUUCACCCUUUCCUUCAAUCCAGCUUUCCCCCUUCUUGUUUGCACAUGCCAAGAUAACUGCUUUUAUGCAGGCUUUACCUGGAAUUCUCGGGUGCCAA | 0.588 |
| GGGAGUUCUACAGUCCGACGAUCUAUGAAAGAUCAUUAAUCAAAGAAUAAGGAAGAAACAAGGUAAAACAGUCCUAAAAUGAUGGAACUAUUUAAAAGGGUGUCAACUCUUAAGAGAACACCUGUGGUUUAAAUGGAAUUCUCGGGUGCCAA | 0.589 |
| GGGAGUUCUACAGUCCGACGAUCCCUUUGUGCUCCACUUAAACCAGAUGUGUUGCAGCUUUCCUGACAUGCAAGGAUCUACUUUAAUUCCACACUCUCAUUAAUAAAUUGAAUAAAAGGGAAUGUUUUGGCACUGGAAUUCUCGGGUGCCAA | 0.35 |
| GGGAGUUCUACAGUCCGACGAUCGCCCUUGAACUUGAAGGACAUUAAAUUAUUAAUGAUCAUUUGGUAACAUGUUUACCUGAUUAUCUUCCAUAGAGUAACAUAAGCUGCUUUUCAAAGGUACCAUUGUGAUAUGGAAUUCUCGGGUGCCAA | 0.315 |
| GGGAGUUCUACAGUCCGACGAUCCCUGCCUUACAGCAGGCAGGUUGUAUGGUGAGAAGAAUGAAGGCUGUUGUAGUUACAGGUGCUCUUACUGGGCUCUGCUCUAGUGUUCCACUUCCUAGAAGUUUAUCCAGUGGAAUUCUCGGGUGCCAA | 0.489 |
| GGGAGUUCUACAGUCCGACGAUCGAUCUGCUGUAGCCAGUGCAGACCUCACUGUCGUGUCCAUGCCACCCCCGGCAUGGCUCCAGGUGGCCUGGUGACUCCAUGAUGGACGAUCUUGCUCCCAGGACCUGCCUUGGAAUUCUCGGGUGCCAA | 0.461 |
| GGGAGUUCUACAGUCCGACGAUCUAUGCAGAGUGGAUAUCUGGGUGGGUUGGGCCACAAGAUUGGAUUUUGGUUCCACUUGGACAACAAACAGUAUUUGCAGAGUGAUUUCAGGAGAGAGCAGGUCUGAGGAAUGGAAUUCUCGGGUGCCAA | 0.67 |
| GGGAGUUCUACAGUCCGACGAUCGAAUGCUGAAAAGUGGCUCAGAUGCAGAGUGUUCUGUGGAGAAACUGCAGCCCCACUUCUGUUUCCCUGGAGUCUCCCAAUGGAUCAUUCAGGAGUGUCCUAUGUGAGAAUGGAAUUCUCGGGUGCCAA | 1.33 |

Series 3
Target: Interferon regulatory factor 7, full length, phosphomimetic (IRF7, Homo sapiens, UniProt Q92985, residues 1-503, S101K/S471D/S472D/S475D/S476D/S477D/S483D/S484D/S487D)
Sequence of UniProt Q92985 (whole entry, unmodified, looked up): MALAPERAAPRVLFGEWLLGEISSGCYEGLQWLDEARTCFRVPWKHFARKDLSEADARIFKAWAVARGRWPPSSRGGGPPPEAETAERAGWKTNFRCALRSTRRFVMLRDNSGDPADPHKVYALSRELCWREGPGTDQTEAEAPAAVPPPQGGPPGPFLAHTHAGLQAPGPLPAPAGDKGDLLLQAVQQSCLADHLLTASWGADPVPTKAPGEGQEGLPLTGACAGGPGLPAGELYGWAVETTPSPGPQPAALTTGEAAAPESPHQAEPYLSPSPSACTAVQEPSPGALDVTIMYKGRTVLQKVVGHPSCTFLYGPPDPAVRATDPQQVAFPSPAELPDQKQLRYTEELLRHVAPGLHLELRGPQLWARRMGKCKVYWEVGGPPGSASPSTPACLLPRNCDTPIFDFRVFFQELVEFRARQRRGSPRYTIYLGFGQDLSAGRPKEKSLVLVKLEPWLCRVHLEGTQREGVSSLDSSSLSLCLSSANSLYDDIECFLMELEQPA
Technique: protein-binding microarray
Molecule type: double-stranded DNA, one strand shown
Matrix: in vitro
Tested at: 250 nM
Notes: 60-bp whole probe
Together with: salmon DNA 0.4 mg/ml
Reference: random background probes
Direction: higher = stronger binding
Constant ends, left off below: GCCTAGCAC … GTCTTGATTCGCTTGACGCTGCTG
| Strand | log fluorescence [z-score] |
| --- | --- |
| GACGATCTCAGACTTGAGACGTGCTAG | -0.217 |
| TTAGATTCCAGTTTTGATTAGTGCTAG | 3.5 |
| GACGATTTCGGGTATCGTGACGTGCTA | 0.752 |
| GACGGTCTCGGACTGAGGACGTGCTAG | -0.089 |
| TATGTTTTTCATTTTGTTCAGTGCTAG | 2.76 |
| GATGAACTGAGTCTCGAGACGTGCTAG | 0.393 |
| TCATATTTGCAACATCCCACTGTGCTA | 0.686 |
| TCATCTTCACATATAATACTGTGCTAG | 0.593 |
| GACGGTTTCCTTTACCTGACGTGCTAG | 1.87 |
| TTAGATTTCGGACTGGGTTAGTGCTAG | 0.412 |
| TTTCTTTTCCATTTTGTGTTGTGCTAG | 3.4 |
| AAACTTACCTCACTCGTTAAGTGCTAG | 0.225 |
| TTCGGTCTCCTTTTCCTTTAGTGCTAG | 2.14 |
| GCTTCTATGTAGTTGATGAAGTGCTAG | 1.06 |

Series 4
Target: Ras GTPase-activating protein-binding protein 1, C-terminal RGG region (G3BP1, Homo sapiens, UniProt Q13283)
Sequence of UniProt Q13283 (whole entry, looked up): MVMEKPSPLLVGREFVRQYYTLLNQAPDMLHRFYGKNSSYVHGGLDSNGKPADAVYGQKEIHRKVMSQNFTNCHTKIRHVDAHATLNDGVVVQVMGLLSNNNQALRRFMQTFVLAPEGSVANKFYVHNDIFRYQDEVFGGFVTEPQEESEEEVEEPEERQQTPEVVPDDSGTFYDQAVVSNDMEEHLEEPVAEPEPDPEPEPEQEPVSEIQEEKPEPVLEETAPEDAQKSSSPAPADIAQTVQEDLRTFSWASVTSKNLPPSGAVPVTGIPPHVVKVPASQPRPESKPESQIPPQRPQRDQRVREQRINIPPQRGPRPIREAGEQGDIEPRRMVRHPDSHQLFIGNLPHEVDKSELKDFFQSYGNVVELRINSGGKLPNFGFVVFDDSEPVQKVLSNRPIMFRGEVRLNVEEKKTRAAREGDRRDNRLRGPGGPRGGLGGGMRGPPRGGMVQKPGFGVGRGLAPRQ
Technique: RNA Bind-n-Seq
Molecule type: RNA
Matrix: in vitro
Tested at: 1 µM
Notes: whole 134-nt RNA, ends assumed
Together with: 150 mM KCl
Reference: input library
Direction: higher = stronger binding
| Strand | log2 enrichment |
| --- | --- |
| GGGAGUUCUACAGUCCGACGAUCAGUCCUGUGCUACACAUCGUAUGUACCGAAUCGGGGCCCCGGCCCCGGGCCCCGGGGAAAGUAUUAUGUUACGCCGUUCGGAUCUGCACUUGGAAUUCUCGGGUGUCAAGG | -2.04 |
| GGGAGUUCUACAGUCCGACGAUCCCUCAAGUCCUGUGCUACACAUCGUAUGUACCGAAUCGGGUGGGGUGGUGGGAAAGUAUUAUGUUACGCCGUUCGGAUCUGCACUUCCAGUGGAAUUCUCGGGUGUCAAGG | 0.834 |
| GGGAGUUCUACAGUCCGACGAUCACCAUGCAGGUGGGCAUCUUUGGGAAGUGGGGCAAGGGGGGGAUAGGGAGGGGGGUAACACCUUGGGAACAGGUGGUCCCAGGUCGUUUCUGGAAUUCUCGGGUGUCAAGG | 2.26 |
| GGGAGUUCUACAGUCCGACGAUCAAGUCCUGUGCUACACAUCGUAUGUACCGAAUCGGGGCCCCGGCCCCGGGGCCCCGGAAAGUAUUAUGUUACGCCGUUCGGAUCUGCACUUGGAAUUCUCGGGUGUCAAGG | -2.54 |
| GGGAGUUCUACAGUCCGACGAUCACCAUGCAGGUGGGCAUAAAUGGGAAGUGGGGCAAGGGGGGGAUAGGGAGGGGGGUAACACUUUGGGAACAGGUGGUCCCAGGUCGUUUCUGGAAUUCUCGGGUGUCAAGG | -1.07 |
| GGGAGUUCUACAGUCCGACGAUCGUCCUGUGCUACACAUCGUAUGUACCGAAUCGGAAAAAGGGGAAAAAGGAAAAAGGGGAAAGUAUUAUGUUACGCCGUUCGGAUCUGCACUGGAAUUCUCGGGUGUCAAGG | -1.04 |
| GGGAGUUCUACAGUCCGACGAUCCUCAGCAGACCCUGAAGGACACUUUGAGACACCAAUCUGGAUUGAGCGGGUGGUGAUAAUAGGGGCUGGAAAGCCAGCAGCUGUGGUACUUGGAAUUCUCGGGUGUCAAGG | -0.606 |
| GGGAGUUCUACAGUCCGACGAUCCCUGUGCUACACAUCGUAUGUACCGAAUCGGGGAAAGGGGAAAAAGGGGAAAAAAAGGGGAAAGUAUUAUGUUACGCCGUUCGGAUCUGCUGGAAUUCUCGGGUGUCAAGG | 0.0911 |
| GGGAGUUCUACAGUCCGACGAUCGCAGGAAGUAAGAACAAAUGGAAAUGCUUCGGAUAGUGGCAGGGGUGGGGGUUGCUAAGGAAAGGGUGGGAUGGGAGUGGGUAAAGAGUUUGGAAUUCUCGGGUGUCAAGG | 1.31 |
| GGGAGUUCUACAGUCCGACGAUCGUCCUGUGCUACACAUCGUAUGUACCGAAUCAAAUUUAAAUUUUUUUAAACCCCCAAAAAAGUAUUAUGUUACGCCGUUCGGAUCUGCACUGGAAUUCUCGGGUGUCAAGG | -0.757 |
| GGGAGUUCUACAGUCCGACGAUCUGCAGUCGAGCCAGCACCUGUUUCUGGACCUGCCUAAGGUAAGUGAGCUUUUCUCUCAACCUAGUUUUCAGGAGGCCUCUUCUGUCCCCUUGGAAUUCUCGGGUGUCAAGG | -0.105 |
| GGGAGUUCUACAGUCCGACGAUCCCUGUGCUACACAUCGUAUGUACCGAAUCGGGCCCCCCGGGCCCCCCGGGCCCCCCGGGGAAAGUAUUAUGUUACGCCGUUCGGAUCUGCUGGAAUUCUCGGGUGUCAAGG | -2.1 |
| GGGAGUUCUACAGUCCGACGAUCUGGACCCGGAGCUGAUGCAGAAGUUCAGCUGCCUGGGCACCACCGACAAGGACGUGCUCAUCUCCGAGUUCCAGAGGCUGCUCGGCUUCCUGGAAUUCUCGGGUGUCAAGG | -0.552 |
| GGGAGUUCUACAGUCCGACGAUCCUCAAGUCCUGUGCUACACAUCGUAUGUACCGAAUCGGGAGGGAAAGGGAGGGAAAGUAUUAUGUUACGCCGUUCGGAUCUGCACUUCCAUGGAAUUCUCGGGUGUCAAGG | 2.05 |

Other studies, line by line
| Substance | target | test | system | setting | scale | endpoint | value |
| --- | --- | --- | --- | --- | --- | --- | --- |
| PhoQ, residues 284 288 289 292 302 303 GANMMA | PhoP, residues 12 14 15 18 19 QWHVF (Escherichia coli, UniProt P23836) | Sort-seq, item: YFP reporter | E. coli | PhoQ-PhoP variant library, together with: 10 µM Mg2+ | reference: high Mg2+ state, higher = stronger signaling | fold induction | 1.28 |

A few entries again (series 1):
| Substitution | binding free energy change |
| --- | --- |
| V82E | 0.676 kcal/mol |
| F35L | 0.665 kcal/mol |
| L74W | -0.0847 kcal/mol |
| V87F | 0.0571 kcal/mol |
| I56H | 0.194 kcal/mol |
| I2K | 0.082 kcal/mol |
| V6C | 0.0504 kcal/mol |
